Published values from different studies.
Each line is one published result; not all experiments were run side by side. “And” joins repeats or separate records; there may be more than shown. ± gives the spread as reported.
HLA class I histocompatibility antigen, A alpha chain allele A*02:01: HLA class I histocompatibility antigen, A alpha chain, allele A*02:01 (Homo sapiens, UniProt P04439)

The binding intensity of `GSGAGSETVV` is reported as 0.338 (human SCRIB PDZ3-4 tandem (MBP fusion); automated holdup; peptide, crude extract; concentration not given, corrected by standard peak, unit not given; relative to: biotin control resin, higher = stronger binding).
The MIC of `colistin` is reported as greater than 64 µg/mL (Enterobacter cloacae; clinical isolate RKI 287/13).
`GSGAGKETSF` — result for “normalised SPR binding response”: 0 normalised RU (human MAGI1-3/6 PDZ construct (MBP fusion); surface plasmon resonance; peptide; concentration not given; higher = stronger binding).
With `CTIL` the Km was 5.6 ± 1 µM (Protein farnesyltransferase (Rattus norvegicus, UniProt Q02293+Q04631); substrate, dansyl fluorescence kinetics; peptide; with: 4 µM C15-Alk).
`11-deoxycorticosterone` — result for “rate constant k-4”: 62.6 min⁻¹ (human CYP11B2; substrate, stopped-flow kinetics; 4-state closed model, with: adrenodoxin 40-fold excess).
With `BzATP` the normalized current was 1.94 and 1.48 and 1.44 (P2X purinoceptor 7 (P2rx7, Rattus norvegicus, UniProt Q64663); ion current, agonist, two-electrode voltage clamp; Xenopus laevis oocytes; 100 µM; relative to: 100 µM ATP current).
`TQLMPFGSLL` has a binding score of 7.9% (HLA class I histocompatibility antigen, A alpha chain allele A*02:01; conformational ELISA; peptide; concentration not given; relative to: positive control peptide, direction not given).
The fraction bound of `milbemycin oxime` is reported as 26% (CDR1 (Candida albicans, UniProt Q5ANA3); binding, microscale thermophoresis; 78.2 nM).
The binding score of `LMPFGSLL` is reported as 26.4% (HLA class I histocompatibility antigen, A alpha chain, allele A*24:02 (Homo sapiens, UniProt P04439); conformational ELISA; peptide; concentration not given; relative to: positive control peptide, direction not given).
`methyl-β-cyclodextrin`: “glycine uptake rate” 50.7 a.u. and 63.3 a.u. and 66.6 a.u. and 67.4 a.u. and 61.9 a.u. (Sodium- and chloride-dependent glycine transporter 1 (SLC6A9, Homo sapiens, UniProt P48067); transport activity, [3H]glycine uptake; 2.5 mg/mL, 1 min, with: glycine 600 µM; higher = more transport).
The binding score of `IMQLMPFGCL` is reported as 33.5% (HLA class I histocompatibility antigen, A alpha chain allele A*02:01; conformational ELISA; peptide; concentration not given; relative to: positive control peptide, direction not given).
With `6-carboxyfluorescein` the uptake was 36.9% (Solute carrier organic anion transporter family member 2A1 (SLCO2A1, Homo sapiens, UniProt Q92959, W565F); compound uptake, substrate; HEK293F expressing SLCO2A1 W565F; 50 µM; relative to: wild type).

Some of these lines once more:
The MIC of `colistin` is reported as greater than 64 µg/mL (Enterobacter cloacae; clinical isolate RKI 287/13).
